Published values of several laboratories.
Every numbered part comes from another study and shows a few of its results, in no order.

Sample 1
Target: RNA binding protein fox-1 homolog 2, RRM domain, GST-SBP tag (RBFOX2, Homo sapiens, UniProt O43251-10, residues 100-194)
Technique: RNA Bind-n-Seq
Molecule type: RNA
Matrix: in vitro
Concentration: 365 nM
Setting: natural RNA segment, single round, ends assumed
Relative to: no-protein control
Direction: higher = stronger binding
Constant ends, left off below: GGGAGUUCUACAGUCCGACGAUC … UGGAAUUCUCGGGUGCCAA
Oligonucleotide	RBNS enrichment (R)
CGGUCCAUCCCUAUUUACAAAGCUAUGGGCCACUGUCAGCACAUUAAACAAGGUGAGGGAGAGUAGCUGCCUCCGUGUCACCUUGUCUGCCUGGGUCUCUGAGGAAGGAG	0.376
UCACUGACGACAACAAAAGCUUAGUUUCUAGCAUGAGAGGCUAAACAGCCCCACACAGCUCUGAUUCCAUAGCUGCAUUAAAGAUGAUUAUUUAUAUUACAGAGAAAAGA	2.41
UCUCCGAAAUGGUGUGAUCGUCUCCUCAUUGAGCAGCGGCUGCCACCGCGCUGUGGGUAGUGUGUGACCGUGGCUGUACUGUAUAGUGAACAUAGUUGGCAUAUCUUUGU	0.611
ACCUUUAAAAGAUCAGUAAGAUGUUUCUCAUAUUUAUGAACUUAGCACUUGAAAACCAACACACUCAGAAAAAGCCACAGAUUGUUAAAAGCCUAAUUGUAGUUCGUAAC	0.532
UUUUUUAUCACUAAAAGUUGGACUCAUUGAUGGAGUCCUGUAGUAGUUUCAGUGUUAGAUACAGUUUUUUCCACCAUACAUCUGUGCAUUUUCUCUUUAGGUGACUGUUU	3.28
UGGCUCACUGCAGCCUCGAACUCCUGGGCUCAAGCAAUCCUCCUGAGUGAUCCCAUUUCUUAAUCAGUGUAGCCCCAAGAAGGCUGGGGCUAUUUACCAGGGUAGAAAAA	0.368
CGGGGCGAGGUACUGGCUGCAGAGUCGCCUUAGUCCAGAACCUGACAGGCCUCUGGAGCCAGGCGACUUCUUGGGAAACUGUCAUCUCCCGACUCCUCCCUGAGCCAGCC	0.362
UUGGAAAGAACAGCGAGUAAGUGCAAGUUGUGCUCCUUCCUUUUCCCUACCUGGUACCCUCCCUGGGUUGAGUAUGAAUGGACAGCUCAGAGACUUUGGGAAGAGAAAUU	6.04
AUUAAGUAAGCAUUUUGCACAUGGGCACCCCAGUGUCCCGCUGGCCCAGCAGGAGUCACUGUUGGCCUCUGGACACUCAUCGGCCUUGGGCAAGUGGUUCUCAGCCAGGU	0.921
AGAUUUAAAAGGAGCACAUGAUUUAGUGGGUGGGCCAUGAAACUAGAGAUGGGAUUUGGGGGUGAAUUUGUCAAUAUCUGGAUUUUAAUCCAGACAUCUCUGCUAACAAG	1.58
CGCCCCCUCCCUGACAGGUGUCUUGUCAAGGUGUAUCCUCCGAGUAUCUUGACCACCUGGCACCAUGCAUGGCCAGAGCUCAUGUCAUCUCCUGCCUCUGUCACCUCAGU	1.93
GUAAAAAUUAAUUUAUUUGUGUUAUCUUGUAUUGACAAAUAAAAAUCUUUACUACUUUCUCAAGCCCGGUCUGUCUUGUCCAUUCUGCCUGCCCCAUAGUGGAGCCCAAG	0.866

Sample 2
Target: Centromere-binding protein 1, full length, N-terminal tag (CBF1, Saccharomyces cerevisiae, UniProt P17106, residues 1-351)
Chain of UniProt P17106 (whole entry, looked up): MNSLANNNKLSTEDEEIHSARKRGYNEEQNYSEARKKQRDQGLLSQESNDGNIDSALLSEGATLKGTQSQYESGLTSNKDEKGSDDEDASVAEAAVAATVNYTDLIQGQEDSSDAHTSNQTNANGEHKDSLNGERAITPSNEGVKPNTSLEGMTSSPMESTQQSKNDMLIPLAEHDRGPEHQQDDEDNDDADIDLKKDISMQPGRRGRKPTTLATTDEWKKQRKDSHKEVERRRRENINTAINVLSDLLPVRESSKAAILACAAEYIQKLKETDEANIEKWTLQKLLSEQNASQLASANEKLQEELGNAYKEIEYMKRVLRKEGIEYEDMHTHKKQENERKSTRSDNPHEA
Technique: protein-binding microarray
Molecule type: double-stranded DNA, one strand shown
Matrix: in vitro
Concentration: 0.8 µM
Setting: whole 60-bp probe, no competitor
Direction: higher = stronger binding
Constant ends, left off below: … GTCTTGATTCGCTTGACGCTGCTG
Oligonucleotide	fluorescence intensity [a.u.]
CTAACAATCCAAAGTCACCTTTATTGGCGATATTTC	515
GAATCTAATTAAAGTAACGTGGGGACTCTTATTTAG	709
GAATCAGGTGAATCATGTGGGACTGAAGAGAGGTAG	879
CTAAACGGCATCTCTCACCTGATTGTTCTCAAGTTC	624
TGTACGAAGCTATGTGACTAGTCTATAGTAGTTAGG	538
GAACTTTCTCTTCCCCGCGTGTTTTCCGTACACTAG	545
GAAAACAAATAACATCACGATGCACGAGCACTGTAG	831
GAATGAAATTTTTTTCTGGTGGTTGTTAGCAAATAG	545
CTAATTGTTGAGAATCTGGTGAAGGTTTTCTTTTTC	486
CTAGAACAATCCAAAGTCACCTTTATTGGCGATTTC	490
GAAATTCGTTTTATCCACGTTTACCCCACAAAATAG	589
GAATCGGAACGGCATGTGACGGTTTGTGCTTTTTAG	1240
GAACCCCCGAATCTTCTCGTCACGGAAGACCGTTAG	505
CTAATTCTTATACATGTGACTAACCGATATTACTTC	4500
CTAGAAATAATCGATGGTGTGAACTAAAGTCCTTTC	518
CTATTGCAACCCATGCTGATGTCTGAAGCGCTGTTC	534
GAATTACAGTGGCCTCCGGTCACCTCGAGTTAGTAG	471
CTATTTTGGCTTCATCACGCTCGTCAGTTGAGCTTC	519
CTAATATGTTTTTCATACGTGATTTGAAGTTTTTTC	571
GAATCTTTTTGCAAACAAATCACGAGCGACGGTTAG	1560
CTATAGGAACTACACCTGACAGCAACTTGCGGCTTC	726
CTAAAAAAAAAAGATCACGAAAGTATCCCACGCTTC	565
CTAGCTTGCAGAAGTCACCTTCTCTTTTCCGTTTTC	522

Sample 3
Target: Histone acetyltransferase KAT6A, winged helix 1, GST fusion (KAT6A, Homo sapiens, UniProt Q92794, residues 1-85)
Technique: protein binding microarray
Molecule type: double-stranded DNA, one strand shown
Matrix: in vitro
Concentration: not given
Setting: 8-mer, flanks averaged, mean of 2 arrays, mostly near background
Relative to: not given
Direction: higher = stronger binding
Target sequence (chain): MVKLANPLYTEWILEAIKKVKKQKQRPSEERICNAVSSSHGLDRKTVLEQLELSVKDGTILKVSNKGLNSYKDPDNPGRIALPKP
Oligonucleotide	E-score
CATACCCG	0.281
AGGTCCCG	0.288
GGCCTCAC	0.0394
AATAGGCT	-0.0436
AACCGTGT	0.0115
GAAATGTC	-0.115
TGTGCCAA	-0.233
AATCTCGC	-0.00893
CACGGCGA	0.366
ATAGGTCA	-0.19
TGATATCA	-0.255
ATGCACCA	-0.186
CAGATAGC	-0.0982
CACACAAA	-0.286
GGCGGGCA	0.327
GGATGACC	0.0686
CCGCCTTA	0.211
TCTCGCCA	-0.0216
ACGTAGGG	-0.0985
AAGCGCCT	0.24
AACATCGT	-0.00613
ACAGGATA	-0.185

Sample 4
Target: Interferon regulatory factor 3, full length, phosphomimetic (IRF3, Homo sapiens, UniProt Q14653, residues 1-427, S386D/S396D/S398D/S402D/T404D/S405D)
Technique: protein-binding microarray
Molecule type: double-stranded DNA, one strand shown
Matrix: in vitro
Concentration: 2540 nM top
Setting: 60-bp whole probe
Together with: salmon DNA 0.4 mg/ml
Relative to: random background probes
Direction: higher = stronger binding
Constant ends, left off below: GCCTAGCAC … GTCTTGATTCGCTTGACGCTGCTG
Target sequence (chain): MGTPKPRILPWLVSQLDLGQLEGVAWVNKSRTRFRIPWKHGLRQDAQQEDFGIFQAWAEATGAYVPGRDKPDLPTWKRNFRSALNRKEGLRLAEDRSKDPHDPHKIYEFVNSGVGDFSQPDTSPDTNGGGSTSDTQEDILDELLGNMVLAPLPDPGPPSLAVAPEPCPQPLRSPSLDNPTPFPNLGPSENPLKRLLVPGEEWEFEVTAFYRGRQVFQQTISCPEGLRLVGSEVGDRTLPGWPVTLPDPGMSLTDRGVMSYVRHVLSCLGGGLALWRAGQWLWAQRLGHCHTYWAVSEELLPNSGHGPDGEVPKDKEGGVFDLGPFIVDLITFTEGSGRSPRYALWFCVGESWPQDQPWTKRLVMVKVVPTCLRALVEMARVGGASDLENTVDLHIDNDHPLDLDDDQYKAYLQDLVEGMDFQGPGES
Oligonucleotide	fitted relative affinity [z-score]
GACGATATCAGATTGGAGACGTGCTAG	0.839
TTAGGACTGCTCCTCCTTTAGTGCTAG	-0.0637
GACGGTATCCTTCTACTGACGTGCTAG	5.31
TTAGGACTGCTTATCATTTAGTGCTAG	-0.266
TTAGATTCCAGTTTCGATTGGTGCTAG	4.43
TGGGATTTTCCCATGAGTCTGTGCTAG	-0.0116
GACGGTTCCCTTTTCCTGAGGTGCTAG	6.27
TCAGATTTCTTCCCTGTGACTGTGCTA	0.525
GACGATATCGGGTACCGAGACGTGCTA	0.0604
TAAGATATCAGTATCGATTAGTGCTAG	1.84
CACGTTGCTCAAGGGCTTGAGTGCTAG	-0.209
GACGGTTTCGACCATCGGGACGTGCTA	1.92
GACGATTTCAGTATCGAGTCGTGCTAG	2.57
TTAGGTCTCCCACTGCTTTAGTGCTAG	0.392
GACGATTGCGGGTATCGAGACGTGCTA	-0.0388
TTGGATCTCAGTTTCGATTAGTGCTAG	3.26

Sample 5
Target: Transcriptional repressor CTCF (CTCF, Homo sapiens, UniProt P49711, residues 1-727, full length assumed)
Chain of UniProt P49711 (whole entry, looked up): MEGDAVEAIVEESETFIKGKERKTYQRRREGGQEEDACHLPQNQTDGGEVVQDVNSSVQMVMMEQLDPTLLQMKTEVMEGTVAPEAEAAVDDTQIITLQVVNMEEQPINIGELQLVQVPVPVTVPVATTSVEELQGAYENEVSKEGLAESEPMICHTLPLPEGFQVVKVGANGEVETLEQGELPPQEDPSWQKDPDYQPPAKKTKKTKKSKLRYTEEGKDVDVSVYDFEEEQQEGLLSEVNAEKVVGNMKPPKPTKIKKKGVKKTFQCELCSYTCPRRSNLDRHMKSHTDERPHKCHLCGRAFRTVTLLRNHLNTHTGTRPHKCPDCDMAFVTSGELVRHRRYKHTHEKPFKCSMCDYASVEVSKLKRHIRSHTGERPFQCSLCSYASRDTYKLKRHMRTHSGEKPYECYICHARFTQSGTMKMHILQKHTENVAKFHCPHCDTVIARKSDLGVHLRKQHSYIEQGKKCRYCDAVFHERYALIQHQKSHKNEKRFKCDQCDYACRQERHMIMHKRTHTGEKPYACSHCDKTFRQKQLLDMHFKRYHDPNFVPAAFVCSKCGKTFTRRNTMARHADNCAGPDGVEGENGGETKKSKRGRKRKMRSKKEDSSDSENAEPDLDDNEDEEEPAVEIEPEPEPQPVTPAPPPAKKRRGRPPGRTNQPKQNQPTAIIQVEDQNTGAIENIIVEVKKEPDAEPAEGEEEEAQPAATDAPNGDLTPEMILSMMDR
Technique: protein-binding microarray
Molecule type: double-stranded DNA, one strand shown
Matrix: in vitro
Concentration: not given
Setting: k-mer, scored over probes, only values ≥0.25
Direction: higher = stronger binding
Oligonucleotide	E-score
ATTTAATA	0.344
TAATTGTA	0.287
AGTGAGTA	0.277
TATTACAA	0.322
GTATTATA	0.354
AAATATAG	0.294
AAAAATGT	0.318
TAAACGTA	0.297
AGTATATA	0.339
GAGGCGCA	0.294
TGATAACA	0.282
GGTAAACA	0.294
CAATACTC	0.292
CATGCATG	0.281
ACTCGCGC	0.322
CGGCGCCG	0.26
CAACATAA	0.316
ATACATGA	0.275
TAACATTA	0.296
CTTATAAA	0.251
AAATACAA	0.323
ACCATAAT	0.303
GTGTAACA	0.25

Sample 6
Target: Eukaryotic initiation factor 4A-I (EIF4A1, Homo sapiens, UniProt P60842, residues 1-406, full length assumed)
Chain of UniProt P60842 (whole entry, looked up): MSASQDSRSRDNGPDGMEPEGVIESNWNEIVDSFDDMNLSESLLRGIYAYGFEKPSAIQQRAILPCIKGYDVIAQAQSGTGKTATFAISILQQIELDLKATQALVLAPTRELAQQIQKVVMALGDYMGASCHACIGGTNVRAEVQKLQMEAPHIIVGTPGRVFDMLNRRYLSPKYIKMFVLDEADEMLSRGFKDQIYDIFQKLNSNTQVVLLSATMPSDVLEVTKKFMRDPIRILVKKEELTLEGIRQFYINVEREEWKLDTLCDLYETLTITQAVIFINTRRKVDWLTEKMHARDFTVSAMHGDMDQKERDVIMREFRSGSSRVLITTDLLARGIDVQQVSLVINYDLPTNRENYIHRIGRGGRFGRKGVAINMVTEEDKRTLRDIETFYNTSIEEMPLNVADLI
Technique: RNA Bind-n-Seq
Molecule type: RNA
Matrix: in vitro
Concentration: 15 pmol
Setting: 4-mer, random 30-nt RNA, single round
Together with: 3 µM DMDA-PatA, 2 mM AMP-PNP
Relative to: input library
Direction: higher = stronger binding
Oligonucleotide	4-mer enrichment [fold]
ACAC	0.526
GCCC	0.636
UGCU	0.862
UAAA	0.981
UGGG	1.67
AUUA	0.933
UCCG	0.887
UCAU	0.612
GUAA	1.48
ACGA	0.675
CGUA	1.53
ACUA	0.896
GUGG	1.66
AGGG	1.07
CGGU	1.19

Sample 7
Target: Sal-like protein 4, full length isoform B (SALL4, Homo sapiens, UniProt Q9UJQ4-2, residues 1-616)
Technique: universal PBM
Molecule type: double-stranded DNA, one strand shown
Matrix: in vitro
Concentration: not given
Setting: 8-mer, flanks averaged, mean of replicates
Direction: higher = stronger binding
Oligonucleotide	E-score
GACGCTCA	-0.293
ACTCCACT	-0.0047
GGGTCGAA	-0.168
ATTAACTC	0.22
CGTCAATC	-0.00245
ACTTGGCC	-0.186
CCGATCAG	-0.196
ATCGCCTG	-0.295
GGGTGGAA	0.0473
AGAGCTTG	-0.17
GGTAACTA	0.157
CAGTTGCC	-0.105
TACGTTAA	0.244
AGTACTCG	-0.00488
GCTCGACC	-0.29
GACCTGGC	-0.303
CGATAGGC	0.11
ATAGACGG	0.11
GGTACCCA	-0.167
GTGGAGTA	0.0784

Some of these lines once more (sample 4):
Oligonucleotide	fitted relative affinity [z-score]
TGGGATTTTCCCATGAGTCTGTGCTAG	-0.0116
TTGGATCTCAGTTTCGATTAGTGCTAG	3.26
TTAGGACTGCTCCTCCTTTAGTGCTAG	-0.0637
GACGGTTTCGACCATCGGGACGTGCTA	1.92
GACGATTGCGGGTATCGAGACGTGCTA	-0.0388
GACGATATCAGATTGGAGACGTGCTAG	0.839
TTAGATTCCAGTTTCGATTGGTGCTAG	4.43
GACGATATCGGGTACCGAGACGTGCTA	0.0604
TAAGATATCAGTATCGATTAGTGCTAG	1.84
GACGGTTCCCTTTTCCTGAGGTGCTAG	6.27
